Experimental data gathered from unrelated publications.
Parts stem from different laboratories: compare values within a part only. Substitutions count along the parent as printed.

Series 1
Target: Ras GTPase-activating protein-binding protein 1, RRM domain (G3BP1, Homo sapiens, UniProt Q13283)
UniProt Q13283, sequence (whole entry, looked up): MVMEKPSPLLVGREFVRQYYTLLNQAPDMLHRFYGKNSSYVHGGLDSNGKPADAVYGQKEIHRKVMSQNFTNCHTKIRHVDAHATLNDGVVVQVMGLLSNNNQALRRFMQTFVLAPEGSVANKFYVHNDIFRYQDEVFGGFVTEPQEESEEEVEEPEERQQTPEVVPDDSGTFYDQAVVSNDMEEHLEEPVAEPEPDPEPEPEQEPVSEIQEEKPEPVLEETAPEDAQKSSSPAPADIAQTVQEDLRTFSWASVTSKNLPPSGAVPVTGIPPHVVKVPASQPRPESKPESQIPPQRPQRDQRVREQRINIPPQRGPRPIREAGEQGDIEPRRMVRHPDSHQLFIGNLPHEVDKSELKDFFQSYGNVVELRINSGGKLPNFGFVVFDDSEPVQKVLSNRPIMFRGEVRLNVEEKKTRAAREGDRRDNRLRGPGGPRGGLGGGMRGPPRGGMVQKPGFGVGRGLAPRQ
Technique: RNA Bind-n-Seq
Form: RNA
Matrix: in vitro
Concentration: 1 µM
Notes: whole 134-nt RNA, ends assumed
Added: 150 mM KCl
Reference: input library
Reading: higher = stronger binding
Constant ends, left off below: GGGAGUUCUACAGUCCGACGAUC … UGGAAUUCUCGGGUGUCAAGG
Strand | log2 enrichment
UCAAGUCCUGUGCUACACAUCGUAUGUACCGAAUCGGGAGGGUGGGAAAAAGGGAAAGUAUUAUGUUACGCCGUUCGGAUCUGCACUUCC | 0.584
UGUGCUACACAUCGUAUGUACCGAAUCGGGGUUUUUUUGGGGAAAAAAAGGGGAAAAAGGGGAAAGUAUUAUGUUACGCCGUUCGGAUCU | 0.712
GUCCUGUGCUACACAUCGUAUGUACCGAAUCGGGAAAGGGUUUUUUUGGGAAAAAGGGAAAGUAUUAUGUUACGCCGUUCGGAUCUGCAC | 0.198
UAACUUUAGAGGAGGAUCUGAUGGAUAUGGCAGUGGACGUGGAUUUGGUGAUGGCUAUAAUGGGUAUGGAGGAGGACCUGGAGGUGGCAA | -0.625
CCUCAAGUCCUGUGCUACACAUCGUAUGUACCGAAUCGGAGGAAAGGAAAGGAAAGUAUUAUGUUACGCCGUUCGGAUCUGCACUUCCAG | -0.182
UCCUGUGCUACACAUCGUAUGUACCGAAUCGGGGAAAAAAAGGGGUUUGGGGUUUGGGGAAAGUAUUAUGUUACGCCGUUCGGAUCUGCA | 1.3
UGGGCAUUUUGGUGGAGACGAUGAGCACCAACGACACGAUCGUCAGUGGCACGCUGCCCCAGCGCAUGGCGUCCUGCCUGGAGGUGCUGG | -0.587
UCCUCAAGUCCUGUGCUACACAUCGUAUGUACCGAAUCGGGCGGGCGGGCGGAAAGUAUUAUGUUACGCCGUUCGGAUCUGCACUUCCAG | 0.425
UAACUUUAGAGGAGGAUCUGAUGGAUAUGGCAGUGGACGUGGAUUUGCGGAUGGCUAUAAUGGGUAUGGAGGAGGACCUGGAGGUGGCAA | -0.565

Series 2
Target: RING finger protein unkempt homolog, zinc fingers 1-6, GST-SBP tag (UNK, Homo sapiens, UniProt Q9C0B0, residues 30-357)
UniProt Q9C0B0, sequence (30-357, looked up): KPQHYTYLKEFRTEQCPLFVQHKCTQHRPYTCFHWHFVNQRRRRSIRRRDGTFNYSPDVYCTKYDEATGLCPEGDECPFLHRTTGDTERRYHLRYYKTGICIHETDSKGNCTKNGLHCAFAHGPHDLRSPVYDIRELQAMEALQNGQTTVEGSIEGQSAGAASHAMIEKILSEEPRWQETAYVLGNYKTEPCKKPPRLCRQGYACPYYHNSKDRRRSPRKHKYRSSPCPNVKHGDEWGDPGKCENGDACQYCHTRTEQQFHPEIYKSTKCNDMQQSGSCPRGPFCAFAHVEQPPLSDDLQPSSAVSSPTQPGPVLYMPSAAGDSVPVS
Technique: RNA Bind-n-Seq
Form: RNA
Matrix: in vitro
Concentration: not given
Notes: RNA with constant flanks, human-mouse chimeric sites, ends assumed
Reference: input RNA pool
Reading: higher = stronger binding
Constant ends, left off below: GGGAGUUCUACAGUCCGACGAUC … CAACAGAGGAUUGAGCAUCA
Strand | bound/input enrichment
UAUCCAACUUUCUUUCCACAUUUUGAAUUCCAAGACAUUAUUCCUCCAGAUGACUUCCUAACGAGUGAUGAAGAGCAAGAUUUGGUUUUAUUUGGAACUAUGAGAGGACAAGUUGUUGGA | 0.141 ratio
UGUGCAUUAUGAUGCUUAGAUGGUUUUUGCAAAAGCAGAAAUCGCUGCAAGGUAAUCACAAUAGAUAAAAGUGGUAUUUUAAACCUUUGAAAUAAAUGGAUGUAACUGUACGUUGGUACA | 1 ratio
AUCAAAUACUUUGGGGAUAUUAUUAGCGUGGGACAGAGACUGUUGCAAGGGGCCCGGAUCUUAGGGAUUCCAGUUAUCAUAACGGAACAAUACCCCAAAGGACUUGGCAGCACCGUUCAA | 0.302 ratio
CCAAGUGAUUCAUCCCAAGGACAGGCCACCCCAUUUGAUGCCUGGACUGACGACAGUAUGGAAGGGCCUAGUCAAAAUGUUGAAGCUGAGUCAAUUCAGGAUGCCAUGAGUAUGGAAGAG | 0.211 ratio
AAAGAGUGGAUAGAGUGUGCACAUGGAAUCGGUGGGACCCGGGCGAAAAAGGAGUGCAAGAUAGAGUUCGAUGACUUCGAAGAGUGCUUGCUUCGGCACAAAACGAUGAGGCGAAUGCAU | 0.41 ratio
UAAGUUAUUUUGUACAGCUUUGUAAAUUCUUAACAUUUUUAUAUUGCACAUUUUAUGUUGUUUGGGUAAUUUGGUUCAUUAAGUACAUAGCUAAGGUAAUGAACAUCUUUUUCAGUAAUU | 0.893 ratio
AGAAUCUGUGACUGGCUUUACUUAAUUGGUCAUUGAUAGCUUAACAAGCAUGGAGAUAAGAUUAGAAAUCUUGACAUCAACAGGUAUUAAGCAGAAAAAACCAUGGCCACGUGUCUCCUG | 0.129 ratio
CACUCGAGGGCUGCCGUUUUCUGUUUCGCCCUGAGCUGCGGAAAGCCAGAAGAUUUUAUCUAGCUUAUACAAGGCUGCUGGUGUUCCCUCUUUUUUUCCACGAGGGUGUUUUUGGCUGCA | 0.372 ratio

Series 3
Target: RNA binding protein fox-1 homolog 2, RRM domain, GST-SBP tag (RBFOX2, Homo sapiens, UniProt O43251-10, residues 100-194)
Technique: RNA Bind-n-Seq
Form: RNA
Matrix: in vitro
Concentration: 365 nM
Notes: natural RNA segment, single round, ends assumed
Reference: no-protein control
Reading: higher = stronger binding
Constant ends, left off below: GGGAGUUCUACAGUCCGACGAUC … UGGAAUUCUCGGGUGCCAA
Residues (chain): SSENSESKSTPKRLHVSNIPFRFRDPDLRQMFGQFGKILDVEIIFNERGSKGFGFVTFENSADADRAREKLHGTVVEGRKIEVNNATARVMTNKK
Strand | RBNS enrichment (R)
CUUAAGAGCCAGAGCCAUAUAAGCAUCUUGGGAAAGCAAGUUUGAACCAGCUGCUGGUGUAAUGUACAGUUAUAUUUGUCUAUAAAUGGAGCUGUUUAUGGCAAUUUAAU | 0.933
CUUUGAAGAUUUCUCAGAAAACUCAGAAGAAACGCCCUCUUUCAGGAUAAAUGUGGUGUUCCUAGCAGGCUGCUUGUUGAAAUUCCAGUGUUUUAAAAAUAUUUUUGUUG | 0.587
UGGUGGACUCCUCCCGCUGGAGGCGGGGACCCUAACAACCUUCAAGACCAGUGAUGGGCCGGCUCCGAGGCUCCGGGCGGGAAUGGGACCUGCGCUCCAGGGUGGUCUCG | 0.377
UGUAUAGUAGAAAAUAAGCUUUGUGCAUCUGUAUUUGAGAUAUGUUAAUGACGUGGAGUAAAGUCAGCUGUAAGACUCUGGAGGCAAACAAGUUGUAUAUGGUUCAUAUG | 1.18
CAGAUGGGGGCCUGUGGCUCCCGUUUUCAUUGUAGUAUUUUAUCCCCUGCACCCACUCCCUUCAUAGAAUCUAGUCAGAAUAACGCCUCUGGGGGUGCAGGUUCUCGGAC | 0.299
UGAGCUGCAGGAGGCAGGGGCAGCCGGGACAUGGGCACUUCAGGGCCGAGCCUCUGUGUUGCCUUCUCCUCUGUCCUCAGACUCAGGAGGCAGGUGGCAAUCUCCUCGCC | 0.23
GAGGACAGAGGGGAGGGACUUGGUGUGAUAGACAUAUAACAGUCACUUCUUGAAGAAGUGCAGUUGUAAAUAAGCCAUGUAAAAUGCCUUUUUAAAGUUUAAUUUUAUAG | 0.927
UACGCCUAGUAGAGCUCGGUGGUGACGCUCCCUUACUCUUAGAUGAAUCAGUAGCUGUGAAAAUAACUGUCACCACAAAAUUACUGUCAUCGAACAUUGACGCAGGUGAU | 0.399

Series 4
Target: CCNA2, cyclin fold, Cln2 fusion (human)
Technique: yeast growth competition, sequencing
Matrix: yeast
Notes: weak parent motif
Reference: not given
Reading: higher = stronger binding
Starting sequence: DBF4 docking peptide (human); DDIVSKLVFDFVE
Change | normalised enrichment score
DDIVSKLVFAFVE [D10A] | -0.213
DDIVSKLVFDAVE [F11A] | -0.275
DDIVSKLAFDFVE [V8A] | -0.728
DDIVSKAVFDFVE [L7A] | -0.655
DDAVSKLVFDFVE [I3A] | -0.545
DDIVSKLVFDFVA [E13A] | -0.366
DDIVSALVFDFVE [K6A] | -0.626

Single results of other studies
Substance | target | assay | test system | conditions | how to read | quantity | result
PhoQ, residues 284 288 289 292 302 303 SSLVEF | PhoP, residues 12 14 15 18 19 SYFRT (Escherichia coli, UniProt P23836) | Sort-seq, measured: YFP reporter | E. coli | PhoQ-PhoP variant library, added: 10 µM Mg2+ | reference: high Mg2+ state, higher = stronger signaling | fold induction | 3.78

A few entries again (series 1):
Strand | log2 enrichment
UGUGCUACACAUCGUAUGUACCGAAUCGGGGUUUUUUUGGGGAAAAAAAGGGGAAAAAGGGGAAAGUAUUAUGUUACGCCGUUCGGAUCU | 0.712
UCAAGUCCUGUGCUACACAUCGUAUGUACCGAAUCGGGAGGGUGGGAAAAAGGGAAAGUAUUAUGUUACGCCGUUCGGAUCUGCACUUCC | 0.584
UAACUUUAGAGGAGGAUCUGAUGGAUAUGGCAGUGGACGUGGAUUUGGUGAUGGCUAUAAUGGGUAUGGAGGAGGACCUGGAGGUGGCAA | -0.625
GUCCUGUGCUACACAUCGUAUGUACCGAAUCGGGAAAGGGUUUUUUUGGGAAAAAGGGAAAGUAUUAUGUUACGCCGUUCGGAUCUGCAC | 0.198
